Measured values of several laboratories.
Parts stem from different laboratories: compare values within a part only. Positions count from the first letter of the parent shown.

Study 1
Target: RNA binding protein fox-1 homolog 2, RRM domain, GST-SBP tag (RBFOX2, Homo sapiens, UniProt O43251-10, residues 100-194)
Method: RNA Bind-n-Seq
Form: RNA
Medium: in vitro
Concentration: 365 nM
Notes: natural RNA segment, single round, ends assumed
Baseline: no-protein control
Direction: higher = stronger binding
Residues (chain): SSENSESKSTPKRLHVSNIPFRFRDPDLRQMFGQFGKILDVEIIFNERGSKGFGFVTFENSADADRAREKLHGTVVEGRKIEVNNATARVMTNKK
For `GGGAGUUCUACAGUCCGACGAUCAUGAAUGGCAAGCUGACAGCUUCUCCUGCUGUUUCCUUCCUCUCUUGGACUGAGUGGGUACGGCCAGCCACUCAGCCCAUUGGCAGCUGACAACGCAGACACGCUCUACGUGGAAUUCUCGGGUGCCAA`, “RBNS enrichment (R)” read 0.25.
Under “RBNS enrichment (R)”, `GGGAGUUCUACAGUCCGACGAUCCCUUUCUUCACCAAGUGCAAUAGAUUUCCUCAUCUGAUAGGCUGUUGCUUUACCGUCACACGCGAUGUGCUCAGCCAAAUUCCCUACUCAAAAUAUCAUGUUAAAUUAGAUGGAAUUCUCGGGUGCCAA` is recorded as 0.536.
Under “RBNS enrichment (R)”, `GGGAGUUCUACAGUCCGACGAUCUUAAAUUAAAAUGUGGUAAGUAGGAAGCAAGAACUUAUUCUGUGUUUUUACGCAGCCAUACACUUACUUUAAUCUAACUCAUUCUGUGGCUAGGAUUGAUAUAGGAAUCAUGGAAUUCUCGGGUGCCAA` is recorded as 0.301.
For `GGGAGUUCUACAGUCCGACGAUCAGCUCUUUGGCUCGUGAACCUAAUUGUAAACUUUCAGGUAUUUUUGUACAAAUAAGGGACUGAUGUUCUGUUUCUUGUAAUUAGAAAUAAACAUUAAUACAGUGUUCUUCUGGAAUUCUCGGGUGCCAA`, “RBNS enrichment (R)” read 0.304.
For `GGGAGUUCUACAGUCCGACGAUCAAGAAAAUCCUCCCAGGAGAACAUGGAGUCUUAGAGAUCUGGAAGAGAUCGGAGUUUGACUAGGUUUCCUGUCUGCAAGUCAAUUUUUUUUGUGAAAUUAUCUUGAUUUAUGGAAUUCUCGGGUGCCAA`, “RBNS enrichment (R)” read 2.55.
Under “RBNS enrichment (R)”, `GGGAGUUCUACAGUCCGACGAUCUUUAGUAGAGUAAUAGGUAGUAUCAGUUUGGAUUCUUAUUGUUAUCACCUAUGUACAAUGGAGAGGGGUUCUAAGCACAAAUCUGCUGCUCAUGUAACGGUGGUACAUAAUGGAAUUCUCGGGUGCCAA` is recorded as 0.334.
`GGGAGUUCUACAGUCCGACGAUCCUGCAUCCGAGUGGCCUUAUGACCGCAGAUGUCCUCUCGGCUGAAGACUGGAGGAAGUGAACACUGGAGUGAAGAAGCGGUCUGUGCGUUGGUGAAGAACACACAUCGAUUGGAAUUCUCGGGUGCCAA` — result for “RBNS enrichment (R)”: 0.599.
`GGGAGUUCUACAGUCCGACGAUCUAUGUUUGGUAAUAUCAUCUUGAAAAGUCCCUGUAAUAGAUCAAGGAGACUGCAUUCCCUGCCCUGAAGGAAUGUAUUUCUAAGGCAAAUAGGCAACUUGGUACUAUCUUUGGAAUUCUCGGGUGCCAA`: “RBNS enrichment (R)” 0.574.
For `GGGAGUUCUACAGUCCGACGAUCGACGCAUAUACAUGAUUCUCAUAUUUAUUGUGUAAAUUGGCUUUAAUACACUUGGAUCACAUUCACUUCCUGUGGAAAAGCUAGCUUUCCCAUGCAGUCAAAGCUUAUAAUGGAAUUCUCGGGUGCCAA`, “RBNS enrichment (R)” read 0.296.
`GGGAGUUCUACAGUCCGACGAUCAGCCUAGAUGGACCCAACCCCGCCCCAGAGGGCAGCAGGUGGGGGUGGGCAAUGUUGGCGCUCACCUGGUCAGUGCACCAGUACCAGGUGGCCAUGAUGGUCAGACCAAAUGGAAUUCUCGGGUGCCAA`: “RBNS enrichment (R)” 0.649.
`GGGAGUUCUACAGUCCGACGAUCUAAUGUGUCUGGACAGAUUGUGGGAGUAAGUGAUUCUUCUAAGAAUUAGAUACUUGUCACUGCCUAUACCUGCAGCUGAACUGAAUGGUACUUCGUAUGUUAAUAGUUGUUGGAAUUCUCGGGUGCCAA`: “RBNS enrichment (R)” 0.782.
`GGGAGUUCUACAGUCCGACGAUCUUCACUAUUUGGUUUAAUGUCAGGUCUGCUGGGGGUAAUGGUGGCCAAGAUCUCAAACUAGGGCUUCCGUCUGUGAUGAGGACGCCUCUGAAGAAAUCUCAAGCUCCCAAUGGAAUUCUCGGGUGCCAA` — result for “RBNS enrichment (R)”: 0.579.

Study 2
Target: ABI1, truncated, D143A, DHFR fusion (Arabidopsis thaliana)
Method: DHFR PCA, deep sequencing
Medium: yeast
Notes: methotrexate growth selection, single substitutions
Together with: (+)-ABA 0.11 µM
Baseline: wild-type fitted maximum
Direction: higher = stronger binding
Starting sequence: PYL1, truncated, DHFR fusion (Arabidopsis thaliana); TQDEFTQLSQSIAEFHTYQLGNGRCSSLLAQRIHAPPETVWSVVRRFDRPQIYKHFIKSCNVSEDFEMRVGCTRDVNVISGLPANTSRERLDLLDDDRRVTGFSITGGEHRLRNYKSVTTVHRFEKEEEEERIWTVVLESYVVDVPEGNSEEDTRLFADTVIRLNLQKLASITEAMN; partner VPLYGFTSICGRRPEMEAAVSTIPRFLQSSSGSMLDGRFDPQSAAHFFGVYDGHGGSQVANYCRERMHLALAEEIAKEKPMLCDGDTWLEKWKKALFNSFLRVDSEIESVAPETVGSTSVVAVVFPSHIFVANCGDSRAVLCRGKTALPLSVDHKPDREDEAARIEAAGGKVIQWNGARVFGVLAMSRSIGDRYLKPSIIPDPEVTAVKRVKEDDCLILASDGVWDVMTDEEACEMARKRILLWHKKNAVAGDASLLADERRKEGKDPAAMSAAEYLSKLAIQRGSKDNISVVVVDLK
`V100T`: “relative binding score” -7.6%.
For `V43Y`, “relative binding score” read -2.58%.
`R113Q` — result for “relative binding score”: 53.5%.
For `P37V`, “relative binding score” read 16.6%.
Under “relative binding score”, `P37E` is recorded as -1.91%.
`E4V` — result for “relative binding score”: 34.5%.
`H110Q`: “relative binding score” 31.4%.
For `A13F`, “relative binding score” read 4.6%.
`G148E` — result for “relative binding score”: 6.61%.
Under “relative binding score”, `V137D` is recorded as -0.597%.
`A175P` — result for “relative binding score”: 10.4%.
Under “relative binding score”, `K168R` is recorded as 29.7%.
For `G108I`, “relative binding score” read 7.74%.
Under “relative binding score”, `N165Q` is recorded as 2.89%.
`G21C`: “relative binding score” 20.5%.
For `T39C`, “relative binding score” read 19.2%.
For `W134R`, “relative binding score” read 9.72%.
`P36A` — result for “relative binding score”: 15.7%.
`N165K`: “relative binding score” 9.53%.
Under “relative binding score”, `P50H` is recorded as 3.29%.
`V100F`: “relative binding score” 2.49%.
`G107N` — result for “relative binding score”: 8.46%.
`F157C`: “relative binding score” 7.16%.
For `V161L`, “relative binding score” read 62.8%.
For `Q10G`, “relative binding score” read 38.2%.

Study 3
Target: RING finger protein unkempt homolog, zinc fingers 1-6, GST-SBP tag (UNK, Homo sapiens, UniProt Q9C0B0, residues 30-357)
UniProt Q9C0B0, sequence (30-357, looked up): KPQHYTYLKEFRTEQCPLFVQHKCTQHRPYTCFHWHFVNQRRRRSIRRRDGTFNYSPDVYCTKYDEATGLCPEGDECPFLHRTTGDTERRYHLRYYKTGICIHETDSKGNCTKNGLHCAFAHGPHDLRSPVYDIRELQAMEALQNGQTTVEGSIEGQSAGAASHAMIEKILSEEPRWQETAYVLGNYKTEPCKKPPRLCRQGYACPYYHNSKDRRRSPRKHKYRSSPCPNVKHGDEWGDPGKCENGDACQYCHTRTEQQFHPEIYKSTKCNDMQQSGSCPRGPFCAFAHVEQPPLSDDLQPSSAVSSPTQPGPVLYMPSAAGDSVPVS
Method: RNA Bind-n-Seq
Form: RNA
Medium: in vitro
Concentration: not given
Notes: RNA with constant flanks, human-mouse chimeric sites, ends assumed
Baseline: input RNA pool
Direction: higher = stronger binding
With `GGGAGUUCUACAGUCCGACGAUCGAUCAUGAACCACCAUCAGAAAUGAAGAUGAGAUUACCCAGACGAGCCAAAACAGCUGCGCUACAGAAAAGUAAACUUUAACCUUGCGAGUUCCUUAAUGAAGAUACAAGUUAAGAGAGCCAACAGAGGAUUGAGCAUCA` the bound/input enrichment was 0.315 ratio.
For `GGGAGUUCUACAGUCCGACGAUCACUCAGAGAUCCACCUCCCAAAGUGCUGGGAGUAAAGGUGUGGCCACCACACCUAACUUGAUGGAUAUUUUAUAAAGCUCUUUUAUGUCUUCCUGUUCGUCCAGGGAAGAAAGAUUUGUUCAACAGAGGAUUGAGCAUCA`, the bound/input enrichment was 0.258 ratio.
`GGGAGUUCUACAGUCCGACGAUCCGCUGGCCCAAGCUGAUGGACUCUGAUGGCCUCCAUCAAGGUAUUAUGUUUGCCUUCUCUUAGUCCCUGUUUUCGGGAUGUUAUGAAUCUCAGUACUGUGGUUUGAAAGCACCAGCUUUGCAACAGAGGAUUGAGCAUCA` has a bound/input enrichment of 0.142 ratio.
`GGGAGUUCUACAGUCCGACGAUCAAAGAAUGGAUAGAGUGUGCACACGGGAUCGGUGGGACCCGGGCGAAGAAAGAGUGCAAGAUAGAGUUCGAUGACUUCGAAGAGUGCUUGCUUCGGUACAAAACGAUGAGGCGAAUGCAUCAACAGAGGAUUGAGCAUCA` gave a bound/input enrichment of 0.574 ratio.
The bound/input enrichment of `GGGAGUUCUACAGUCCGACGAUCGGCCUGGGACCGUCCUGGGCUAGUACAAAUAGCGGCAGUGGAGGCUCAGAGGAAAGUUUUGUUAGUGGAGGCAGUGGAGAGGUCGUCCAUGUACGGUCCUUUACUCGAUAGAUGUGUUCUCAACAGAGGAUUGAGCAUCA` is reported as 0.639 ratio.
`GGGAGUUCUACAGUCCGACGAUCAACAGAUUGUCUUUAAGCAUUCCAAGCGAGAAUGCUGGGGUGAUCAUUGUUGCCCAUGUGCCUUCUGACUGAGCUUUAAUGCUGUUCAUCCUUGAUGCUUUCCUUCACUCCAGAAUUGUUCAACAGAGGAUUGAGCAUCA` gave a bound/input enrichment of 0.164 ratio.
With `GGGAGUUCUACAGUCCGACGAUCACACAAUAUGAGACCAACAGCAUGGACUUCAAAGUUGGGGCAGAUGGGACAGUCUUCGCCACCCGGGAGUUGAAGAUCCCCUCCGAGCAGGUGGCGUUCACGGUGACUGCAUGGGACAGCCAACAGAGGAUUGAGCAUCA` the bound/input enrichment was 0.265 ratio.
With `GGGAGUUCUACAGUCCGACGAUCAAGCAACGCAAACUUGAAACAAUUCGUUAUCUUGCAGCCUCAGUGUUCACUUGCUUGGCGAUAGCAUUGGGGUUUUAUAGGUUCUGGAAGGAGAACUGACGAUGAUGCUGCCGCUGCUGCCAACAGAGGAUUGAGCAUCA` the bound/input enrichment was 0.168 ratio.
`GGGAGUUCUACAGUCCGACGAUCUAUAAUAAUCAUGAAAUUCGUUCCGGGAAACAUAUUGGUGUCUGCAUCUCAGUUGCCAACAAUAGGCUUUUUGUGGGCUCUAUUCCUAAGAGUAAAACCAAGGAGCAGAUUCUUGAGGAACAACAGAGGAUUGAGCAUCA` has a bound/input enrichment of 0.982 ratio.
With `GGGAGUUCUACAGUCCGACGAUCAACAGAUUGUCUUUAAGGUCAACGUAGGAGAAUGCUGGGGUGAUCAUUGUUGCCCAUGUGCCUUCUGACUGAGCUUUAAUGCUGUUCCAUGUUACAUCUUUCCUUCACUCCAGAAUUGUUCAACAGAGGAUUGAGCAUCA` the bound/input enrichment was 0.119 ratio.
`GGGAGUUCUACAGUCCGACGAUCAGAAAGCAAAACUUGGAACGAUUUAAGAAAGGAGACGUAAGAUUCUUGAUUUGCACAGAUGUAGCUGCUAGAGGGAUUGAUAUCCAUGGUGUUCCUUAUGUUAUAAACGUCACCCUGCCUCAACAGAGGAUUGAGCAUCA` has a bound/input enrichment of 0.29 ratio.

Study 4
Target: Histone acetyltransferase KAT6A, winged helix 2, GST fusion (KAT6A, Homo sapiens, UniProt Q92794, residues 85-181)
Method: protein binding microarray
Form: double-stranded DNA, one strand shown
Medium: in vitro
Concentration: not given
Notes: 8-mer, flanks averaged, mean of 2 arrays, mostly near background
Baseline: not given
Direction: higher = stronger binding
Residues (chain): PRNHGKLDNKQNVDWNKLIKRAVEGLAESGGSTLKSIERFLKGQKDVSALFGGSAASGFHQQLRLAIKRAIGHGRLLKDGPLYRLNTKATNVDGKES
For `AAAACGCC`, the E-score was 0.173.
`AGAGTCAC` gave an E-score of -0.0786.
With `TACAACCA` the E-score was 0.0181.
`AGCCCTAT` gave an E-score of -0.0968.
The E-score of `ACACCGGC` is reported as 0.236.
The E-score of `CACTCGGA` is reported as 0.19.
With `AGCACGTA` the E-score was -0.142.
The E-score of `ACGAATTC` is reported as 0.154.
`GACTAGCA` has an E-score of -0.0867.
`AAGTTGCA` gave an E-score of -0.15.
`ATCACTGA` gave an E-score of 0.0559.
`AAATCATA` gave an E-score of 0.0045.
`ACCACGTG` has an E-score of -0.167.
For `AAGCTTGG`, the E-score was -0.0123.
For `ATACAGTA`, the E-score was -0.13.
`GTAAATCA` gave an E-score of 0.0561.
`GTCTATTA` has an E-score of -0.111.
`CTCAGATC` gave an E-score of 0.0119.
`ACGCATCA` has an E-score of 0.0528.
With `ATGCCGAC` the E-score was 0.0465.
`AGGATCCG` has an E-score of -0.0804.
`AGCGTTCG` has an E-score of -0.0876.
With `CCCGTTAC` the E-score was -0.0139.
With `CAGTCTGA` the E-score was -0.076.
With `CGGTACTA` the E-score was -0.196.

Repeated from above (study 4):
The E-score of `CACTCGGA` is reported as 0.19.
With `AGCACGTA` the E-score was -0.142.
The E-score of `ACGAATTC` is reported as 0.154.
`GACTAGCA` has an E-score of -0.0867.
`AAGTTGCA` gave an E-score of -0.15.
`ATCACTGA` gave an E-score of 0.0559.
`AAATCATA` gave an E-score of 0.0045.
